# Measurements collected from several papers.
# A part holds a random share of what one study measured.

# Sample 1 — method: aptamer microarray, sandwich; molecule type: DNA with 2'F-ANA; medium: in vitro; tested at: 200 nM; added: Cy3 exosite-II aptamer, 400 nM; reading: higher = stronger binding; sequence: GGTTGGTGTGGTTGG
# Target: Prothrombin, mature alpha-thrombin (F2, Homo sapiens, UniProt P00734)
# Notes: whole 15-mer aptamer, many near background
Modification,mean fluorescence intensity [a.u.]
2'F-ANA at 2 3 6 7 8 9 11 12 14 15,325
2'F-ANA at 4 5 11 12 15,98
2'F-ANA at 1 3 6 8 9 12 13 14 15,113
2'F-ANA at 3 4 6 7 12 13 14,316
2'F-ANA at 2 3 6 9 10 11 12 14 15,261
2'F-ANA at 1 2 3 5 9 11 12 13 14,46.7
2'F-ANA at 6 7 10 11 14,106

# Sample 2 — method: RNA Bind-n-Seq; molecule type: RNA; medium: in vitro; tested at: 200 nM; notes: whole 134-nt RNA, ends assumed; added: 150 mM LiCl; relative to: input library; reading: higher = stronger binding; library: 7-deaza-guanosine replaces G
# Target: Ras GTPase-activating protein-binding protein 1, full length (G3BP1, Homo sapiens, UniProt Q13283)
# Sequence of UniProt Q13283 (whole entry, looked up): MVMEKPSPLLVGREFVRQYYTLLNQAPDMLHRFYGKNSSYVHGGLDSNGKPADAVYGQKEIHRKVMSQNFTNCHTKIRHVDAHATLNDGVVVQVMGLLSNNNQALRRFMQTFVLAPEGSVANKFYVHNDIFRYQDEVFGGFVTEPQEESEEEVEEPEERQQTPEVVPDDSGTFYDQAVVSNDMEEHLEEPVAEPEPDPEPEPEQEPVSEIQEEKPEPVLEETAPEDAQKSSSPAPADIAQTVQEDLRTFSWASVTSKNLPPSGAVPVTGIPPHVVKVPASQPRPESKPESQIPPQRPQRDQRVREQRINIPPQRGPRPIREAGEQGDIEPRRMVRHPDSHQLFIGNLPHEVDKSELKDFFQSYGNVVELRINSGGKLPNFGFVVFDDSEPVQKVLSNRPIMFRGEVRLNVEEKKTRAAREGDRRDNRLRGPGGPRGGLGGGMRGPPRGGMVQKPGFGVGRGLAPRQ
# All sequences stand within: GGGAGUUCUACAGUCCGACGAUC … UGGAAUUCUCGGGUGUCAAGG
Sequence,log2 enrichment
CUCCAGAAAGCAGUGGGGCCUGAGAUCACCAAGACAGACCUGGUCCCUGCCUUCCAGAACCUGAUGAAAGACUGUGAGGCCGAGGUGAGG,-1.35
GUCCUGUGCUACACAUCGUAUGUACCGAAUCGGGAAAGGGUUUUUUUGGGUUUUUGGGAAAGUAUUAUGUUACGCCGUUCGGAUCUGCAC,-1.79
GCAGGAAGUAAAAACAAAUGGAAAUGCUUCGGAUAGUGGCGGGGGUGGGGGUUGCUAAGGAAAGGGUGGGAUGGGAGUGGGUAAAGAGUU,0.218
UGGGAGGUGGAUUUUGUUUAUAUUUUUAGCUCAUUUCCAGGGGUGGGAAUUUUUUUUUAAUAUGUGUCAUGAAUAAAGUUGUUUUUGAAA,-0.325
GCAGGAAGUAAAAACAAAUGGAAAUGCUUCGGAUAGUGGCAGGGGUGGGGGUUGCUAAGGAAAGGGUGGGAUGGGAGUGGGUAAAGACUU,-0.0129
UCCUGUGCUACACAUCGUAUGUACCGAAUCGGGGAAAAAAGGAAAAAAGGAAAAAAGGGGAAAGUAUUAUGUUACGCCGUUCGGAUCUGC,-0.186

# Sample 3 — method: protein binding microarray; molecule type: double-stranded DNA, one strand shown; medium: in vitro; tested at: not given; relative to: not given; reading: higher = stronger binding
# Target: Histone acetyltransferase KAT6A, winged helix 2, GST fusion (KAT6A, Homo sapiens, UniProt Q92794, residues 85-181)
# Notes: 8-mer, flanks averaged, mean of 2 arrays, mostly near background
# Target sequence (chain): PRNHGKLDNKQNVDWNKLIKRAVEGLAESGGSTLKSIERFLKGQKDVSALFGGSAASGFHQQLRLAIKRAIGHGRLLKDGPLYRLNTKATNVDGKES
Sequence,E-score
CACTACTA,-0.0147
ACTCTTCT,-0.0899
AACACCCA,-0.0969
AGGCTGGC,-0.0825
GCGGAAAA,0.0177
GCGGTTCC,0.102

# Further values, each from its own experiment
Substance,target,assay,system,conditions,scale,endpoint,value
"PhoQ, residues 284 288 289 292 302 303 MLMVEA","PhoP, residues 12 14 15 18 19 NQCAL (Escherichia coli, UniProt P23836)","Sort-seq, refers to: YFP reporter",E. coli,"PhoQ-PhoP variant library, added: 10 µM Mg2+","relative to: high Mg2+ state, higher = stronger signaling",fold induction,6.78

# For quick reference, copied from above (sample 3):
Sequence,E-score
ACTCTTCT,-0.0899
CACTACTA,-0.0147
